# Assay results pooled from the literature.
# Lines come from different studies, so protocols differ. Values joined by “and” are separate records of one study, mostly repeats; a detail may differ. ± gives the spread as reported.
Compound,test,system,setting,scale,endpoint,result
CC(C)[C@H](NC(=O)[C@@H](NC(=O)[C@H](CCCNC(=N)N)NC(=O)[C@H](CCCNC(=N)N)NC(=O)[C@H](CCCNC(=N)N)NC(=O)[C@H](CCC(N)=O)NC(=O)[C@H](CCCNC(=N)N)NC(=O)[C@H](CCCNC(=N)N)NC(=O)[C@H](CCCCN)NC(=O)[C@H](CCCCN)NC(=O)[C@H](CCCNC(=N)N)NC(=O)CN)[C@@H](C)O)C(=O)N[C@H](C(=O)N[C@@H](CO)C(=O)N1CCC[C@H]1C(=O)O)[C@@H](C)O,,"ICR mice, female, brain","intranasal, 10 mg/kg daily, 4 weeks",,organ weight,0.577 ± 0.05 g
C=Cc1c(C)c2cc3nc(c(CC(=O)[O-])c4[n-]c(cc5nc(cc1[n-]2)C(C)=C5CC)c(C)c4C(=O)[O-])C(CCC(=O)[O-])C3C.[Cu+2].[Na+].[Na+].[Na+] (centres unmarked),,BALB/c mouse,"oral, acute toxicity",,minimum lethal dose,> 5000 mg/kg
NC1CCN(C(=O)Oc2ccc(C3CCCC4(C3)OOC3(O4)C4CC5CC(C4)CC3C5)cc2)CC1 (racemic),,citrate buffer,"0 h, anaerobic, added: 50 mM ferrous iron",,parent remaining,100%
CCCCC[C@@H]1NC(=O)[C@@H](C)N(C)C(=O)[C@H](CCCCC)NC(=O)[C@@H](C)N(C)C(=O)[C@H](CCCCC)NC(=O)[C@@H](C)N(C)C(=O)[C@H](CCCCC)NC(=O)[C@@H](C)N(C)C1=O,PAMPA,,"500 µM, pH 7.4, UV/ELSD/MS detection",,log Papp,-5.5
CC(C)C[C@@H](NC(=O)[C@@H](CCCCN)NC(=O)CNC(=O)CNC(=O)[C@@H]1CSSC[C@H](N)C(=O)NCC(=O)N[C@@H](CCCNC(=N)N)C(=O)N[C@@H](CCCNC(=N)N)C(=O)N[C@@H](C)C(=O)NCC(=O)NCC(=O)N[C@@H](CO)C(=O)N1)C(=O)N[C@H](C)C(=O)N[C@H](CCCCN)C(=O)N[C@H](CC(C)C)C(=O)N[C@H](C)C(=O)N[C@H](CCCCN)C(=O)N[C@H](CCCCN)C(=O)N[C@H](CC(C)C)C(=O)N[C@H](C)C(=O)N[C@H](CCCCN)C(=O)N[C@H](CC(C)C)C(=O)N[C@H](C)C(=O)N[C@H](CCCCN)C(=O)O,,"mouse, plasma","intravenous, 15 mg/kg",,MRT,2.12 h
O=C1NC2(CC2)COc2ncc(F)cc2[C@H]2COCCN2c2ccn3ncc1c3n2,,"Sprague-Dawley rats, female, blood","oral, 10 mg/kg/day, end of treatment, 4-week subacute toxicity",,eosinophil percentage,1.24 ± 0.47%
CSCC[C@H](N)C(=O)N[C@@H](C)C(=O)N[C@@H](Cc1c[nH]c2ccccc12)C(=O)N[C@@H](Cc1c[nH]cn1)C(=O)N[C@@H](CC(=O)O)C(=O)N[C@@H](CC(=O)O)C(=O)N[C@@H](CCC(=O)O)C(=O)N[C@@H](CCC(=O)O)C(=O)N[C@@H](Cc1ccccc1)C(=O)N[C@@H](C)C(=O)N[C@@H](CCCNC(=N)N)C(=O)N[C@@H](CCCNC(=N)N)C(=O)N[C@@H](CCCNC(=N)N)C(=O)N[C@@H](CCCNC(=N)N)C(=O)NCCCCCC(=O)NCCCCC(NC(=O)CCCCCNC(=O)[C@H](CCCNC(=N)N)NC(=O)[C@H](CCCNC(=N)N)NC(=O)[C@H](CCCNC(=N)N)NC(=O)[C@H](CCCNC(=N)N)NC(=O)[C@H](C)NC(=O)[C@H](Cc1ccccc1)NC(=O)[C@H](CCC(=O)O)NC(=O)[C@H](CCC(=O)O)NC(=O)[C@H](CC(=O)O)NC(=O)[C@H](CC(=O)O)NC(=O)[C@H](Cc1c[nH]cn1)NC(=O)[C@H](Cc1c[nH]c2ccccc12)NC(=O)[C@H](C)NC(=O)[C@@H](N)CCSC)C(=O)NCCCCC(NC(=O)C(CCCCNC(=O)CCCCCNC(=O)[C@H](CCCNC(=N)N)NC(=O)[C@H](CCCNC(=N)N)NC(=O)[C@H](CCCNC(=N)N)NC(=O)[C@H](CCCNC(=N)N)NC(=O)[C@H](C)NC(=O)[C@H](Cc1ccccc1)NC(=O)[C@H](CCC(=O)O)NC(=O)[C@H](CCC(=O)O)NC(=O)[C@H](CC(=O)O)NC(=O)[C@H](CC(=O)O)NC(=O)[C@H](Cc1c[nH]cn1)NC(=O)[C@H](Cc1c[nH]c2ccccc12)NC(=O)[C@H](C)NC(=O)[C@@H](N)CCSC)NC(=O)CCCCCNC(=O)[C@H](CCCNC(=N)N)NC(=O)[C@H](CCCNC(=N)N)NC(=O)[C@H](CCCNC(=N)N)NC(=O)[C@H](CCCNC(=N)N)NC(=O)[C@H](C)NC(=O)[C@H](Cc1ccccc1)NC(=O)[C@H](CCC(=O)O)NC(=O)[C@H](CCC(=O)O)NC(=O)[C@H](CC(=O)O)NC(=O)[C@H](CC(=O)O)NC(=O)[C@H](Cc1c[nH]cn1)NC(=O)[C@H](Cc1c[nH]c2ccccc12)NC(=O)[C@H](C)NC(=O)[C@@H](N)CCSC)C(N)=O (some centres unmarked),,"C57BL/6 mouse female, colon","dose not given, 3 h",reference: total,tissue distribution,1.81% and 2.66% and 4.48%
CC[C@H](C)[C@H](NC(=O)[C@H](CCCCN)NC(=O)CNC(=O)[C@H](CC(C)C)NC(=O)[C@H](Cc1ccccc1)NC(=O)[C@H](CCCCN)NC(=O)[C@H](CO)NC(=O)[C@H](Cc1ccccc1)NC(=O)[C@H](Cc1c[nH]c2ccccc12)NC(=O)[C@H](CCC(N)=O)NC(=O)[C@@H](NC(=O)[C@H](Cc1ccccc1)NC(=O)CCCCCNC(=O)CN1CCN(CC(=O)O)CCN(CC(=O)O)CCN(CC(=O)O)CC1)C(C)C)C(=O)N[C@@H](CCC(=O)O)C(=O)N1CCC[C@H]1C(=O)N[C@@H](CC(=O)O)C(=O)N[C@H](C(=O)N[C@@H](CO)C(=O)N[C@@H](CCC(N)=O)C(=O)N[C@H](C(=O)N[C@@H](CCC(N)=O)C(=O)N[C@@H](CC(=O)O)C(=O)N1CCC[C@H]1C(=O)N[C@@H](CC(N)=O)C(=O)N[C@@H](CC(=O)O)C(=O)N[C@@H](CCC(N)=O)C(=O)N[C@@H](Cc1ccc(O)cc1)C(=O)N[C@@H](CCC(=O)O)C(=O)N1CCC[C@H]1C(=O)N[C@@H](Cc1ccccc1)C(=O)O)C(C)C)C(C)C [copper-64 labelled],dynamic PET,"mouse, CT26 tumour, untreated, tumour","intravenous, 100 µCi/mouse, 110 s",,SUVmean,1.04 SUV
C=CC(=O)Nc1cccc(Cn2ncc3cnc(Nc4cnn(CCOC)c4)nc32)c1,,"Sprague-Dawley rat female, serum","oral, 180 mg/kg, day 28, 28-day subacute toxicity",,serum albumin,22 ± 4.97 g/L
CN[C@H](CC(C)C)C(=O)N[C@H]1C(=O)N[C@@H](CC(N)=O)C(=O)N[C@H]2CN[C@H]3C(=O)N[C@H](C(=O)N[C@H](C(=O)NCCCNC(=N)N)c4cc(O)cc(O)c4-c4cc3ccc4O)[C@H](O)c3ccc(c(Cl)c3)Oc3cc2cc(c3O[C@@H]2O[C@H](CO)[C@@H](O)[C@H](O)[C@H]2O[C@H]2C[C@](C)(NCc3ccc(-c4ccc(Cl)cc4)cc3)[C@H](O)[C@H](C)O2)Oc2ccc(cc2Cl)[C@H]1O,,mouse,"intravenous, 10 mg/kg",,half-life,4.7 h
Cc1cc(-c2ccc3ccccc3c2)nnc1NCCN1CCN(C)CC1,metabolic stability,"rat, liver microsomes",,,microsomal CLint,< 23.1 µL/min/mg
N#[11C]c1ccc(-c2csc(NN=C3CCCC3)n2)cc1,,"C57BL/6 mice, male, bladder","intravenous, 3 MBq, 15 min",,radioactivity uptake,16.4 ± 5.8 %ID/g
C[C@H](O)[C@@H](NC(=O)[C@H]1CCCN1C(=O)[C@@H](CCCCN)NC(=O)[C@@H](CO)NC(=O)[C@@H](Cc1ccc(O)cc1)NC(=O)[C@@H](CC(N)=O)NC(=O)CCOCCOCCOCCNC(=O)CN1CCN(CC(=O)O)CCN(CC(=O)O)CCN(CC(=O)O)CC1)C(=O)N[C@H](CC(=O)O)C(=O)N[C@H](CCCNC(=N)N)C(=O)N[C@H](CCC(N)=O)C(=O)N[C@H](Cc1ccc(O)cc1)C(=O)N[C@H](Cc1c[nH]cn1)C(=O)N[C@H](Cc1ccccc1)C(N)=O [gallium-68 labelled],ex vivo gamma counting,"BALB/c nude mouse, U-87 MG xenograft, blood","intravenous, 1.85 MBq, 60 min",,tissue uptake,0.11 ± 0.02 %ID/g
C#Cc1c(F)ccc2cc(O)cc(-c3ncc4c(N5CC6CCC(C5)N6C(=O)OC(C)OC(C)=O)nc(OC[C@@]56CCCN5C[C@H](F)C6)nc4c3F)c12 (some centres unmarked),refers to: prodrug,mouse whole blood,1 µM,,t1/2,3.59 min
CN1Cc2cc(Cl)ccc2-n2c(nnc2C2CCN(c3cccc([18F])n3)CC2)C1,PET two-tissue compartment model,"rhesus monkey, thalamus","intravenous, dose not given, 90 min scan, baseline scan",,total volume of distribution,1.13 ± 0.34 mL/cm3
CC(C)[C@@H]1NC(=O)CNC(=O)[C@H](CC(N)=O)NC(=O)[C@H](CCCNC(=N)N)NC(=O)[C@H](Cc2ccc(O)cc2)NC(=O)[C@H](C(C)C)NC(=O)[C@@H](NC(=O)[C@@H](NC(=O)[C@H](CC(N)=O)NC(=O)[C@H](Cc2c[nH]c3ccccc23)NC(=O)[C@H](C)NC(=O)[C@H](Cc2ccccc2)NC(=O)CNC(=O)[C@H](CCCCN)NC(=O)[C@H](Cc2ccccc2)NC(=O)[C@H](Cc2ccccc2)NC(=O)[C@H](CCCCN)NC(=O)OCC2c3ccccc3-c3ccccc32)C(C)C)CSSC[C@@H](C(=O)N[C@@H](Cc2c[nH]cn2)C(=O)N[C@@H](CCCNC(=N)N)C(=O)N[C@@H](CCCNC(=N)N)C(=O)N[C@@H](C)C(=O)N[C@@H](CC(N)=O)C(N)=O)NC(=O)[C@H](C(C)C)NC(=O)[C@H](CCCNC(=N)N)NC1=O,,"ICR mouse, blood","intramammary, 5 mg/kg, day 5, 3 d dosing",,globulin,18.65 ± 0.05 g/L
CC(CCC(=O)NCC(=O)O)C1CCC2C3CCC4CC(OC5OC(C(=O)O)C(O)C(O)C5O)CCC4(C)C3CC(O)C12C (centres unmarked),,"women, T/C genotype, plasma","dose not given, geometric mean",,glucuronide to parent ratio,0.7
